Measurements from different studies.
Every numbered part comes from another study and shows a few of its results, in no order. “And” joins repeats or separate records; there may be more than shown.
Sequence of UniProt Q9UPE1 (whole entry, looked up): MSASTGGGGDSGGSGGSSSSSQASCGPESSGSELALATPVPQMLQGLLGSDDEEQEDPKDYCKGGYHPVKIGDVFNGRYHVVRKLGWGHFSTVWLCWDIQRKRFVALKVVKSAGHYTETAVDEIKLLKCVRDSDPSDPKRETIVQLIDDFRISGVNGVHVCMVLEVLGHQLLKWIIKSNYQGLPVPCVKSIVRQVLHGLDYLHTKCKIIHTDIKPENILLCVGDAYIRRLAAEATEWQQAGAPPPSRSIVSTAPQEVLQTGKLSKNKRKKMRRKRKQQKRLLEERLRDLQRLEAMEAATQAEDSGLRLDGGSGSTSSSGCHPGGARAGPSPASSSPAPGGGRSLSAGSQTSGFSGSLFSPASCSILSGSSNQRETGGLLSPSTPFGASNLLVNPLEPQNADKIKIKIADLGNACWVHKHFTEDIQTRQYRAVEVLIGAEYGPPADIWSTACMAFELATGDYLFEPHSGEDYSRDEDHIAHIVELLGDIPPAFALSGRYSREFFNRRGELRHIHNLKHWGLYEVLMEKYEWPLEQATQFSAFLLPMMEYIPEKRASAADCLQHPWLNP
Sequence of UniProt Q8IVH8 (whole entry, looked up): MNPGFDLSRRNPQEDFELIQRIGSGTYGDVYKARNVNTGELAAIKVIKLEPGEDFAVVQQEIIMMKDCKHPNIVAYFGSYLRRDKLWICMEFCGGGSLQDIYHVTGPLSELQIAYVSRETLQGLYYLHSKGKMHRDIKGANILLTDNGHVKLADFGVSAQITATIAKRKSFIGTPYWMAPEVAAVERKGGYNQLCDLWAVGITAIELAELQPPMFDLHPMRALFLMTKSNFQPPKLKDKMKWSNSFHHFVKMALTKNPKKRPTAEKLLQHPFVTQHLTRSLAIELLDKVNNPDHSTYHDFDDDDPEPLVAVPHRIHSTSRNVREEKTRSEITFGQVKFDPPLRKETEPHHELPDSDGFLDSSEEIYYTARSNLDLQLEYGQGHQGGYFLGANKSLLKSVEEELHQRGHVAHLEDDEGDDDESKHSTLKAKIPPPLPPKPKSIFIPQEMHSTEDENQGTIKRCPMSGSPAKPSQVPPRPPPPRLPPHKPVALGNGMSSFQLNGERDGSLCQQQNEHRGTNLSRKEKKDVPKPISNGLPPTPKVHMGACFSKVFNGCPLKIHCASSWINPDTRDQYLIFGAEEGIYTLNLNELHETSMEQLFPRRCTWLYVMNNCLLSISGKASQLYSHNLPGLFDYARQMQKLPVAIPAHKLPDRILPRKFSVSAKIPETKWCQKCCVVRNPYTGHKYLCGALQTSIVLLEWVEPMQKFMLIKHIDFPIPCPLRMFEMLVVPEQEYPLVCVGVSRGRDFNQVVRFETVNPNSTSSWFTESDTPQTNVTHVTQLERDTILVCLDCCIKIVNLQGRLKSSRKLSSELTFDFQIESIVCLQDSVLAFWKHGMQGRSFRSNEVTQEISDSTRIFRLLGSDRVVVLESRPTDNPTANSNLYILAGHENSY
Sequence of UniProt Q8TBX8 (whole entry, looked up): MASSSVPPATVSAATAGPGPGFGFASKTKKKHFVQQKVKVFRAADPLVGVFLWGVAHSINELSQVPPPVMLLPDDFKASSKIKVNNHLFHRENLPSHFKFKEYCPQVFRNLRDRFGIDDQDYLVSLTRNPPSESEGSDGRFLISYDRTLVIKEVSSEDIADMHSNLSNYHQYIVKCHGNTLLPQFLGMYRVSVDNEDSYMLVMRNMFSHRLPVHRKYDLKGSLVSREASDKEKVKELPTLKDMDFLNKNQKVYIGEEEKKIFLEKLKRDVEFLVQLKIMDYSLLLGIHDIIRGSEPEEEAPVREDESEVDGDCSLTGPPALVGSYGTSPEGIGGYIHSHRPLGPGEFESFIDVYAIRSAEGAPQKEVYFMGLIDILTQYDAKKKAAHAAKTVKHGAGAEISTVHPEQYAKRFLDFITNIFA
Sequence of UniProt P49674 (whole entry, looked up): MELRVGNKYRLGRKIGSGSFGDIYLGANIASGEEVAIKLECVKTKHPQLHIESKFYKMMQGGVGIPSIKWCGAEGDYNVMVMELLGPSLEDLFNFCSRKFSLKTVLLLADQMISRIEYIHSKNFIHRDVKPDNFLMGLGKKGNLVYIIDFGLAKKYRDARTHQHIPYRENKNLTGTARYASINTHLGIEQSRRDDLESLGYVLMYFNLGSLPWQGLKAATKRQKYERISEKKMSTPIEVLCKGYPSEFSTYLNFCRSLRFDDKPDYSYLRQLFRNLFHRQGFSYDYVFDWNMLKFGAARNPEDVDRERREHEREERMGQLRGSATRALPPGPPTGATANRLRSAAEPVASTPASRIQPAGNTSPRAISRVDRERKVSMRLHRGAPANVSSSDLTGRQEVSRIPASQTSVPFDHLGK
Sequence of UniProt Q13043 (whole entry, looked up): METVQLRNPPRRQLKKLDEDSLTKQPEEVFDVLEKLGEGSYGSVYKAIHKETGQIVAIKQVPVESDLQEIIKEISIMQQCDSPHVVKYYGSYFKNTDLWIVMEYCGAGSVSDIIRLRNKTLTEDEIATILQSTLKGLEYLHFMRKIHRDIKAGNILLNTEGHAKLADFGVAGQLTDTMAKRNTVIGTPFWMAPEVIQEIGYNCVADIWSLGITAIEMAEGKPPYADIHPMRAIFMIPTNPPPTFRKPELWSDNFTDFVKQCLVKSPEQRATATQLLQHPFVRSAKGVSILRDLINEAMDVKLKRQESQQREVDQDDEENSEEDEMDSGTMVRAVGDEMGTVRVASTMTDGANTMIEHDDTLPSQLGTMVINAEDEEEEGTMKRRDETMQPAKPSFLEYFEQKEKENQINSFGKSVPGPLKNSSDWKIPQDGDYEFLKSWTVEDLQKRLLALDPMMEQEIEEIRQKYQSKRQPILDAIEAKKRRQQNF
Sequence of UniProt Q9BZL6 (whole entry, looked up): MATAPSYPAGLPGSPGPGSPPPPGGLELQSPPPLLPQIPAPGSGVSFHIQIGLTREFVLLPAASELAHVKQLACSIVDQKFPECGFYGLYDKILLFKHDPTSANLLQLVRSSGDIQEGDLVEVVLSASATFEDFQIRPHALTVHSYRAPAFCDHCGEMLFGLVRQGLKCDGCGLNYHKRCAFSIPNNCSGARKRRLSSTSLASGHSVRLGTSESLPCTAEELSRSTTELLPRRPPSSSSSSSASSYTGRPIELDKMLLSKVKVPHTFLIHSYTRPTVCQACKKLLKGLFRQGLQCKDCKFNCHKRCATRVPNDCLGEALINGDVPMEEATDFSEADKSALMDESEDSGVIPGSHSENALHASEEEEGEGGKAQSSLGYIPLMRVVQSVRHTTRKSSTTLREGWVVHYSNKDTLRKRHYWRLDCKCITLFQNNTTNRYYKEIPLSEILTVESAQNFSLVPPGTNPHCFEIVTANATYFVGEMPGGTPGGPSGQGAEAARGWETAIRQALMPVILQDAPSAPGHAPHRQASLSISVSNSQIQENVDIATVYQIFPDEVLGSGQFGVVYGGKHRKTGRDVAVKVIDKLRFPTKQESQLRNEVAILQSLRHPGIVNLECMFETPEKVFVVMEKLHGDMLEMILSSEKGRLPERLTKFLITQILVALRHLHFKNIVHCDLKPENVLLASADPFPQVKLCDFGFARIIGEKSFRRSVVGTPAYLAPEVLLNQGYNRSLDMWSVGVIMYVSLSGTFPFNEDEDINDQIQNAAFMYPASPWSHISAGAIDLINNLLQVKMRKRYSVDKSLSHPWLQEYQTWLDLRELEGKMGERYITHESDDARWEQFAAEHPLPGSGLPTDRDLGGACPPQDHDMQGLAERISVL
Sequence of UniProt P04629 (whole entry, looked up): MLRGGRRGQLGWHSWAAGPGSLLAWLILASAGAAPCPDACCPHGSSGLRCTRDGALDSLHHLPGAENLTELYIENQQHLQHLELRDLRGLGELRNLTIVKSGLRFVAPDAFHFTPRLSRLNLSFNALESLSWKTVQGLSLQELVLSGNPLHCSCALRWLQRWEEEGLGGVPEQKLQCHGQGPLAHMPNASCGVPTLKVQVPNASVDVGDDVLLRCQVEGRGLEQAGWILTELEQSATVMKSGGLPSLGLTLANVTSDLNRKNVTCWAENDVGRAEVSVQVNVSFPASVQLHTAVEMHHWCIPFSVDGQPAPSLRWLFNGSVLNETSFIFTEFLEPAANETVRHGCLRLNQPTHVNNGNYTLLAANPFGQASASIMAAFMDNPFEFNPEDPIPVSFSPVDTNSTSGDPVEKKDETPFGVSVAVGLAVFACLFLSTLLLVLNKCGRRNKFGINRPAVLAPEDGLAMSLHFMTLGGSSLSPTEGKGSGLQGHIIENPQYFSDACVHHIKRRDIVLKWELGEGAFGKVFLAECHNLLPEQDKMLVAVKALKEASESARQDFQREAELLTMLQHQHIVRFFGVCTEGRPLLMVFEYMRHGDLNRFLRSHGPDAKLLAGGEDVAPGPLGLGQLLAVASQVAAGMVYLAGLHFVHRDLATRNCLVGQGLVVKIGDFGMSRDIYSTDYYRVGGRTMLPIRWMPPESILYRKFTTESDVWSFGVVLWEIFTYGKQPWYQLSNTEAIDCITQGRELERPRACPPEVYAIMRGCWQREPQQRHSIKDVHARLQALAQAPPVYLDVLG
Sequence of UniProt O00238 (whole entry, looked up): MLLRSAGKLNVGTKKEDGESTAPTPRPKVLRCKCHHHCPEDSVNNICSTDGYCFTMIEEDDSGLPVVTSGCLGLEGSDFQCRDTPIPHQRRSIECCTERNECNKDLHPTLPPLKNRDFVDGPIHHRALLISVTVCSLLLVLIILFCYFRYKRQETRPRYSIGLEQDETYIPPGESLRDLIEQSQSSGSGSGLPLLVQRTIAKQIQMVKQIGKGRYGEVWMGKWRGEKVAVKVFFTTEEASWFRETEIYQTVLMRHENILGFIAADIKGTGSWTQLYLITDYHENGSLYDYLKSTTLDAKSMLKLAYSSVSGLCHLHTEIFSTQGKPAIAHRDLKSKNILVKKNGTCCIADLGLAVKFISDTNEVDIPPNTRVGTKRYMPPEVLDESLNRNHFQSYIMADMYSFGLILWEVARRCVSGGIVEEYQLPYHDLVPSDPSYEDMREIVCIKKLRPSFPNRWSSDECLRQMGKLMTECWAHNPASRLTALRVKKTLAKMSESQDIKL

Block 1
Cell line: MDA-MB-231
Effect on: cell viability
Technique: CellCounting-Lite
Concentration: 0.3048 nM
Temperature: 37 °C
Direction: higher = more viable cells
Structure (SMILES) | luminescence signal
CC(=O)N1CCN(c2nc(NCc3nc4cc(Cl)c(Cl)cc4[nH]3)c3ncn(C(C)C)c3n2)CC1 | 489000 a.u. and 497000 a.u. and 490000 a.u.
CCn1cnc2c(NCc3nc4cc(Cl)c(Cl)cc4[nH]3)nc(N3CCN(S(C)(=O)=O)CC3)nc21 | 446000 a.u. and 447000 a.u. and 459000 a.u.
CCn1cnc2c(NCc3nc4cc(Cl)c(Cl)cc4[nH]3)nc(N3CCC(NC(C)=O)CC3)nc21 | 434000 a.u. and 506000 a.u. and 451000 a.u.
CC(=O)N1CCN(c2nc(NCc3nc4cc(Cl)c(Cl)cc4[nH]3)c3ncn(C)c3n2)CC1 | 507000 a.u. and 412000 a.u. and 421000 a.u.
CCn1cnc2c(NCc3nc4cc(Cl)c(Cl)cc4[nH]3)nc(N3CCN(C(=O)CNC(C)=O)CC3)nc21 | 491000 a.u. and 485000 a.u. and 461000 a.u.
Cn1cc(-n2cnc3c(NCc4nc5cc(Cl)c(Cl)cc5[nH]4)nc(N4CCNCC4)nc32)cn1 | 447000 a.u. and 486000 a.u. and 479000 a.u.
CCn1cnc2c(NCc3nc4cc(Cl)c(Cl)cc4[nH]3)nc(N3CCN(C(=O)c4ccccc4)CC3)nc21 | 445000 a.u. and 473000 a.u. and 440000 a.u.
CCn1cnc2c(NCc3nc4ccc(F)c(F)c4[nH]3)nc(N3CCn4ncnc4C3)nc21 | 524000 a.u. and 456000 a.u. and 509000 a.u.
CC(=O)N1CCN(c2nc(NCc3nc4cc(Cl)c(Cl)cc4[nH]3)c3ncn(-c4cnn(C)c4)c3n2)CC1 | 526000 a.u. and 490000 a.u. and 463000 a.u.
CCn1cnc2c(NCc3nc4cc(Cl)c(Cl)cc4[nH]3)nc(N3CCN(C(=O)c4cccnc4)CC3)nc21 | 431000 a.u. and 398000 a.u. and 458000 a.u.
CCn1cnc2c(NCc3nc4cc(Cl)c(Cl)cc4[nH]3)nc(N3CCN(C(=O)[C@H](C)NC(C)=O)CC3)nc21 | 440000 a.u. and 405000 a.u. and 438000 a.u.
CCn1cnc2c(NCc3nc4cc(Cl)c(Cl)cc4[nH]3)nc(N3CCN(c4ccccn4)CC3)nc21 | 567000 a.u. and 561000 a.u. and 611000 a.u.
CCCCOc1nc(NCc2nc3cc(Cl)c(Cl)cc3[nH]2)c2ncn(CC)c2n1 | 485000 a.u. and 596000 a.u. and 456000 a.u.
CCn1cnc2c(NCc3nc4cc(Cl)c(Cl)cc4[nH]3)nc(N3CCN(C(=O)c4ccncc4)CC3)nc21 | 480000 a.u. and 443000 a.u. and 507000 a.u.
CCn1cnc2c(NCc3nc4cc(Cl)c(Cl)cc4[nH]3)nc(N3CCN(C(=O)c4ccccn4)CC3)nc21 | 460000 a.u. and 443000 a.u. and 403000 a.u.
CCn1cnc2c(NCc3nc4cc(Cl)c(Cl)cc4[nH]3)nc(N3CCN(Cc4ccncc4)CC3)nc21 | 457000 a.u. and 431000 a.u. and 408000 a.u.
CCn1cnc2c(NCc3nc4cc(Cl)c(Cl)cc4[nH]3)nc(N3CCN(C(C)=O)CC3)nc21 | 436000 a.u. and 445000 a.u.
CCn1cnc2c(NCc3nc4cc(Cl)c(Cl)cc4[nH]3)nc(N3CCn4ncnc4C3)nc21 | 455000 a.u. and 439000 a.u. and 529000 a.u.

Block 2
Organism: Arabidopsis thaliana
Strain: Col-0
Concentration: 6.25 µg/mL
Setting: seed germination, repetition mean
Compound | hypocotyl length
O=C(O)C1(O)Oc2cc(Br)ccc2N(Cc2ccccc2)C1=O (centres unmarked) | 2.03 cm
CCN1C(=O)C(O)(C(=O)O)Oc2cc(F)ccc21 (centres unmarked) | 2.05 cm
CCCN1C(=O)C(O)(C(=O)O)Oc2cc(F)ccc21 (centres unmarked) | 2.15 cm
CC(C)=CCN1C(=O)C(O)(C(=O)O)Oc2cc(F)ccc21 (centres unmarked) | 2.01 cm
COc1ccc2c(c1)OC(O)(C(=O)O)C(=O)N2Cc1ccccc1 (centres unmarked) | 1.9 cm
Cc1ccc2c(c1)OC(O)(C(=O)O)C(=O)N2Cc1ccccc1 (centres unmarked) | 2.04 cm
O=C(O)C1(O)Oc2cc(F)ccc2N(Cc2ccccc2)C1=O (centres unmarked) | 1.63 cm
CC(C)(C)c1ccc(Oc2ccc3c(c2)OC(O)(C(=O)O)C(=O)N3Cc2ccccc2)cc1 (centres unmarked) | 2.04 cm
CN1C(=O)C(O)(C(=O)O)Oc2cc(F)ccc21 (centres unmarked) | 2.1 cm
O=C(O)C1(O)Oc2cc(Cl)ccc2N(Cc2ccccc2)C1=O (centres unmarked) | 2.06 cm
O=C(O)C1(O)Oc2ccccc2N(Cc2ccccc2)C1=O (centres unmarked) | 1.92 cm
O=C(O)C1Oc2cc(F)ccc2N(Cc2ccccc2)C1=O (centres unmarked) | 2.3 cm

Block 3
Compound: CCC1(c2cccc(-c3cn(C)nc3C)c2)C2=C(Nc3n[nH]cc31)C(F)C(C)(C)CC2=O (single isomer, unassigned)
Concentration: 1 µM
target | effect on | technique | reference | remaining binding [%]
Ribosomal protein S6 kinase alpha-6, C-terminal kinase domain (RPS6KA6, Homo sapiens, UniProt Q9UK32) | binding | competition with immobilised ligand | – | 100
Myosin light chain kinase 2, skeletal/cardiac muscle (MYLK2, Homo sapiens, UniProt Q9H1R3) | kinase binding | KINOMEscan | DMSO control | 100
Serine/threonine-protein kinase 4 (STK4, Homo sapiens, UniProt Q13043) | binding | competition with immobilised ligand | – | 95
Serine/threonine-protein kinase B-raf (BRAF, Homo sapiens, UniProt P15056) | binding | competition with immobilised ligand | – | 100
Serine/threonine-protein kinase D2 (PRKD2, Homo sapiens, UniProt Q9BZL6) | binding | competition with immobilised ligand | – | 66
Bone morphogenetic protein receptor type-1B (BMPR1B, Homo sapiens, UniProt O00238) | binding | competition with immobilised ligand | – | 98
Ephrin type-A receptor 7 (EPHA7, Homo sapiens, UniProt Q15375) | binding | competition with immobilised ligand | – | 100
Serine/threonine-protein kinase Sgk1 (SGK1, Homo sapiens, UniProt O00141) | binding | competition with immobilised ligand | – | 97
Ephrin type-B receptor 3 (EPHB3, Homo sapiens, UniProt P54753) | kinase binding | KINOMEscan | DMSO control | 100
Phosphatidylinositol 5-phosphate 4-kinase type-2 gamma (PIP4K2C, Homo sapiens, UniProt Q8TBX8) | kinase binding | KINOMEscan | DMSO control | 90
High affinity nerve growth factor receptor (NTRK1, Homo sapiens, UniProt P04629) | binding | competition with immobilised ligand | – | 100
Serine/threonine-protein kinase WNK3 (WNK3, Homo sapiens, UniProt Q9BYP7) | binding | competition with immobilised ligand | – | 100
Serine/threonine-protein kinase OSR1 (OXSR1, Homo sapiens, UniProt O95747) | binding | competition with immobilised ligand | – | 100
Tyrosine-protein kinase JAK1, JH2 (JAK1, Homo sapiens, UniProt P23458) | binding | competition with immobilised ligand | – | 95
Tyrosine-protein kinase ABL1, phosphorylated (ABL1, Homo sapiens, UniProt P00519, Y253F) | kinase binding | KINOMEscan | DMSO control | 71
Mitogen-activated protein kinase kinase kinase kinase 3 (MAP4K3, Homo sapiens, UniProt Q8IVH8) | binding | competition with immobilised ligand | – | 100
SRSF protein kinase 3 (SRPK3, Homo sapiens, UniProt Q9UPE1) | binding | competition with immobilised ligand | – | 100
Casein kinase I isoform epsilon (CSNK1E, Homo sapiens, UniProt P49674) | binding | competition with immobilised ligand | – | 87
Proto-oncogene tyrosine-protein kinase receptor Ret (RET, Homo sapiens, UniProt P07949, M918T) | binding | competition with immobilised ligand | – | 100
Epidermal growth factor receptor (EGFR, Homo sapiens, UniProt P00533, G719S) | binding | competition with immobilised ligand | – | 100

Block 4
Cell line: HCC1569
Technique: in-cell western
Measured: CDK1 phospho-Thr14
Concentration: 41.15 nM
Compound | pCDK1 (Thr14) level
Cc1ncc(-c2cc3c(C(F)(F)F)c(-c4c(C)ccc(O)c4C)cnc3[nH]2)cn1 | 20.5 RLU and 11.9 RLU
Cc1ccc(O)c(C)c1-c1cnc2[nH]c(-c3cnc(N4CCC(CCN5CCN(c6ccc(NC7CCC(=O)NC7=O)cc6F)CC5)CC4)nc3)cc2c1C#N (centres unmarked) | 63.3 RLU and 49.6 RLU
Cc1ccc(O)c(C)c1-c1cnc2[nH]c(-c3cnc(N4CCC(CN5CCN(c6ccc7c(c6)CN(C6CCC(=O)NC6=O)C7=O)CC5)CC4)nc3)cc2c1C#N (centres unmarked) | 39.9 RLU and 42.2 RLU
Cc1ccc(O)c(C)c1-c1cnc2[nH]c(-c3cnc(N4CCC(CN5CCN(c6ccc7c(c6F)CN(C6CCC(=O)NC6=O)C7=O)CC5)CC4)nc3)cc2c1C#N (centres unmarked) | 1.42 RLU and 14.7 RLU
Cc1ccc(O)c(C)c1-c1cnc2[nH]c(-c3cnc(N4CCC5(CC4)CC(CN4CCN(c6ccc(NC7CCC(=O)NC7=O)cc6F)CC4)C5)nc3)cc2c1C#N (centres unmarked) | 23.5 RLU and 33.5 RLU
Cc1ccc(O)c(C)c1-c1cnc2[nH]c(-c3cnc(N)nc3)cc2c1C#N | 31.4% and 40.6%
